# Published values collected from several papers.
# Compare with care: the assays were run in different laboratories. Values joined by “and” are separate records of one study, mostly repeats; a detail may differ. Numbers after ± are the reported error.
# Sequence of UniProt Q07912 (whole entry, looked up): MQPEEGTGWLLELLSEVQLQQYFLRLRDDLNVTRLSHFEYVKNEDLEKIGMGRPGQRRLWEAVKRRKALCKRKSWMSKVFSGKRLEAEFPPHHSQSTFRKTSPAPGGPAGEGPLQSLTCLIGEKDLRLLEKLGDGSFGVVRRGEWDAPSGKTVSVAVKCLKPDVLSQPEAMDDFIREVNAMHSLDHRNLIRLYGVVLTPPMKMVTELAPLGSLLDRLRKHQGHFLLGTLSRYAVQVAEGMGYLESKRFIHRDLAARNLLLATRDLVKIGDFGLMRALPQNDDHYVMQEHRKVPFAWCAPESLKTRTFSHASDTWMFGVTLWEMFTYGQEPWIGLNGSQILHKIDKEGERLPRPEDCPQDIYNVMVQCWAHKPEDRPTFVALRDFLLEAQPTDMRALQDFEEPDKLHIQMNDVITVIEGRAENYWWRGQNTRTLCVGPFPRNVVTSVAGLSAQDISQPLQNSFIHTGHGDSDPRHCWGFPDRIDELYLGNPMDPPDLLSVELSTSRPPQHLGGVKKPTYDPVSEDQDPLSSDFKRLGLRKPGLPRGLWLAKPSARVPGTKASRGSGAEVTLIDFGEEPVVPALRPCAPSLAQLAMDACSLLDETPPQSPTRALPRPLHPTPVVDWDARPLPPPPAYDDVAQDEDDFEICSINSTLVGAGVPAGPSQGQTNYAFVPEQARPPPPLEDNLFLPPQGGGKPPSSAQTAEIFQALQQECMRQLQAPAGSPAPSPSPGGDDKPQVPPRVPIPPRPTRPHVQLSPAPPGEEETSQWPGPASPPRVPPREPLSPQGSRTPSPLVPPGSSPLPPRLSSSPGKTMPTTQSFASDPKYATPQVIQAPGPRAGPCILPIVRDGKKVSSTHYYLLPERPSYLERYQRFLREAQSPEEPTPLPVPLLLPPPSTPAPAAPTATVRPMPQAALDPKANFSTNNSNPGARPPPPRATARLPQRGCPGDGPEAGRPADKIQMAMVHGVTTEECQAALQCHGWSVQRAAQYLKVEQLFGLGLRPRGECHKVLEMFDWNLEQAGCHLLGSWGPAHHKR
# Sequence of UniProt Q14164 (whole entry, looked up): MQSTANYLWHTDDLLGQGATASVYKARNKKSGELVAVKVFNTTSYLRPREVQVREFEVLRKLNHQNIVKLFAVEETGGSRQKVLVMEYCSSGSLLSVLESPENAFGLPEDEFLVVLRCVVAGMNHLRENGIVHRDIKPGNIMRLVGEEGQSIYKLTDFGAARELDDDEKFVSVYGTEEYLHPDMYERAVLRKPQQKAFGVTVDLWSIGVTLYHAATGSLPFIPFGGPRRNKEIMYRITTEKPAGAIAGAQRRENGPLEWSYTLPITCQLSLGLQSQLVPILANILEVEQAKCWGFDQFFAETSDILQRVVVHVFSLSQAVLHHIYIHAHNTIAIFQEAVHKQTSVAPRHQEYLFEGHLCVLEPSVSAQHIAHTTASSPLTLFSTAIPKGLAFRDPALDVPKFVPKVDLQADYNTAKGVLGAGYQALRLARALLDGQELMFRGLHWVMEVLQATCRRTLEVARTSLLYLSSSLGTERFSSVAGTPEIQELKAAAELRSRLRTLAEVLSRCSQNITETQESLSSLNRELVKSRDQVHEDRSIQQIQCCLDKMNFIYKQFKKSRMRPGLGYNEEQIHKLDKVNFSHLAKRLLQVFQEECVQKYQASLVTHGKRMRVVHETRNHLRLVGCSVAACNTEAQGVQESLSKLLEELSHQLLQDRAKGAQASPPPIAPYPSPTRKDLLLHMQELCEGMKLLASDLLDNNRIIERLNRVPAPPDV
Structure (SMILES),tested on,test,system,setting,scale,quantity,value
COc1ccccc1-c1n[nH]c2nc(NC3CCN(C(=O)Cc4ccc(F)cc4F)CC3)ncc12,,"bead binding, competition bead pull-down, item: LINJ.36.6960",Leishmania donovani axenic amastigote extract,10 µM,baseline: vehicle,relative abundance,1.04
COc1ccccc1-c1ccncc1C(=O)Nc1nnc(OCc2ccc(Cl)cc2)s1,RPE-1 TP53-/- BRCA1-/-,,,"8 µM, average of 2 runs",baseline: untreated,colony survival,25.8%
O=C(O)c1ccc(-c2nc(-c3ccccc3Cl)c3sccn23)cc1,K562,"megakaryocyte differentiation, flow cytometry",,"0.1 mM, 48 h",,CD61-positive cells,14% and 14.8%
COc1ccccc1-c1n[nH]c2nc(N[C@H]3CC[C@H](NS(=O)(=O)CC(C)C)CC3)ncc12,,"bead binding, competition bead pull-down, item: LINJ.31.0710",Leishmania donovani extract,10 µM,baseline: vehicle,relative abundance,0.77
C=CCN1C(=O)C(CC=C)(C(=O)OCC)Oc2cc(F)ccc21 (stereo not drawn),L02,"cell growth or viability, CCK-8",,"12.5 µM, 72 h",,inhibition,0.22%
O=C1NC2(CC2)COc2ncc(F)cc2[C@H]2COCCN2c2ccn3ncc1c3n2,,,"Sprague-Dawley rat, male, plasma","oral, 20 mg/kg/day, end of recovery, 4-week repeated-dose toxicity",,prothrombin time,9.1 ± 0.1 s
Cc1cc(Oc2nc(N3CC[C@@H](c4ccncc4)C3)ncc2F)[nH]n1,SU-DHL10,cell proliferation,blood cancer,,,IC50,85.1 µM
CS(C)(=O)=Nc1ccc(-c2ccc(-c3nc4cc(O[C@@H]5CO[C@H]6[C@@H]5OC[C@H]6O)[nH]c4cc3F)cc2)cc1,"Activated CDC42 kinase 1 (TNK2, Homo sapiens, UniProt Q07912)","enzyme activity, inhibitor",,10 µM,,inhibition,4%
CC(=O)NCSC[C@H](NC(=O)[C@@H]1CCCN1C(=O)[C@H](C)NC(=O)[C@@H](NC(=O)CNC(=O)[C@@H](NC(=O)[C@H](Cc1c[nH]c2ccccc12)NC(=O)[C@H](C)NC(=O)CNC(=O)[C@H](CO)NC(=O)[C@H](C)NC(=O)[C@@H]1CCCN1C(=O)[C@H](Cc1c[nH]c2ccccc12)NC(=O)[C@H](C)NC(=O)[C@H](C)NC(=O)[C@@H](N)Cc1ccc(O)cc1)[C@@H](C)O)[C@@H](C)O)C(=O)N[C@@H](CO)C(=O)N[C@@H](C)C(=O)NCC(=O)N[C@H](C(=O)NCCOCCOCCOCCOCCOCCOCCOCCOCCOCCOCCOCCOCCC(=O)N[C@@H](CS)C(N)=O)[C@@H](C)O,SW480,phage binding,,"10 min, 37 °C",baseline: control phage,selectivity ratio,9.1 ± 2
CC(C)(C)C(=O)OCOP(=O)(OCOC(=O)C(C)(C)C)C1CCCN(O)C1=O (stereo not drawn),MOLT-4,,,,,log TGI,-5.57 log M
CC(C)CC(O)(CC(C)C)c1cn(C(=O)N2CCCC2)nn1,mouse T-cells,"protein abundance, unenriched SILAC proteomics, item: S100a4",,"1 nM, 6 h, single tryptic peptide",baseline: DMSO,SILAC ratio,1.09 and 0.92
CC(C)C[C@H](NC(=O)[C@H](CC(=O)O)NC(=O)CNC(=O)[C@@H](N)CCCNC(=N)N)C(=O)N[C@@H](C)C(=O)N[C@H](C(=O)N[C@@H](CC(C)C)C(=O)N[C@@H](CCCNC(=N)N)C(=O)N[C@@H](CCC(N)=O)C(=O)N[C@@H](CC(C)C)C(=O)N[C@@H](C)C(=O)N[C@@H](CCC(N)=O)C(=O)N[C@@H](CCC(=O)O)C(=O)N[C@@H](CC(=O)O)C(=O)NCC(=O)N[C@H](C(=O)N[C@H](C(=O)NCC(=O)N[C@H](C(=O)N[C@@H](CCCNC(=N)N)C(=O)NCCOCCOCCOCCOCCOCCOCCOCCOCCOCCOCCOCCOCCC(=O)N[C@@H](CS)C(N)=O)C(C)C)C(C)C)C(C)C)[C@@H](C)O,SW480,phage binding,,"10 min, 37 °C",baseline: control phage,selectivity ratio,6.6 ± 3.3
CC[C@H](C)[C@H](NC(=O)CNC(=O)[C@H](Cc1ccc(O)cc1)NC(=O)[C@H](CO)NC(=O)[C@H](Cc1ccc(O)cc1)NC(=O)[C@@H](NC(=O)[C@H](CC(=O)O)NC(=O)[C@H](CO)NC(=O)[C@H](CCC(N)=O)NC(=O)[C@H](Cc1ccccc1)NC(=O)[C@H](CO)NC(=O)[C@H](Cc1ccccc1)NC(=O)[C@@H]1CCCN1C(=O)[C@H](CC(N)=O)NC(=O)[C@H](CC(N)=O)NC(=O)[C@H](CC(=O)O)NC(=O)[C@H](CCC(N)=O)NC(=O)[C@@H]1CCCN1C(=O)[C@H](CCCNC(=N)N)NC(=O)[C@H](CCCNC(=N)N)NC(=O)[C@H](CCCNC(=N)N)NC(=O)[C@H](CCC(N)=O)NC(=O)[C@H](CCCNC(=N)N)NC(=O)[C@H](CCCNC(=N)N)NC(=O)[C@H](CCCCN)NC(=O)[C@H](CCCCN)NC(=O)[C@H](CCCNC(=N)N)NC(=O)CN)C(C)C)C(=O)N[C@H](C(=O)N[C@@H](CC(C)C)C(N)=O)C(C)C,MCF7,"immunoblot densitometry, item: phospho-c-Raf Ser338",,"50 µM, 48 h, unit not given",baseline: 0 µM,phospho-c-Raf level,0.144 and 0.221
C#CCN1C(=O)C(CC#C)(C(=O)OCC)Oc2ccccc21 (stereo not drawn),L02,"cell growth or viability, CCK-8",,"50 µM, 72 h",,inhibition,0.85%
CN(C)[C@H]1C[C@@]23CC[C@@]4(O2)C(=CC[C@]2(C)[C@@H](c5ccc6ccncc6c5)CC[C@H]24)C=C3[C@@H](O)[C@@H]1O,"Inhibitor of nuclear factor kappa-B kinase subunit epsilon (IKBKE, Homo sapiens, UniProt Q14164)","ATP probe labelling, inhibitor, KiNativ profiling",,0.1 µM,,inhibition,-8.4%

# Repeated from above:
Structure (SMILES),tested on,test,system,setting,scale,quantity,value
COc1ccccc1-c1ccncc1C(=O)Nc1nnc(OCc2ccc(Cl)cc2)s1,RPE-1 TP53-/- BRCA1-/-,,,"8 µM, average of 2 runs",baseline: untreated,colony survival,25.8%
O=C(O)c1ccc(-c2nc(-c3ccccc3Cl)c3sccn23)cc1,K562,"megakaryocyte differentiation, flow cytometry",,"0.1 mM, 48 h",,CD61-positive cells,14% and 14.8%
